Assay results of several laboratories.
Parts stem from different laboratories: compare values within a part only.
UniProt P33981, sequence (whole entry, looked up): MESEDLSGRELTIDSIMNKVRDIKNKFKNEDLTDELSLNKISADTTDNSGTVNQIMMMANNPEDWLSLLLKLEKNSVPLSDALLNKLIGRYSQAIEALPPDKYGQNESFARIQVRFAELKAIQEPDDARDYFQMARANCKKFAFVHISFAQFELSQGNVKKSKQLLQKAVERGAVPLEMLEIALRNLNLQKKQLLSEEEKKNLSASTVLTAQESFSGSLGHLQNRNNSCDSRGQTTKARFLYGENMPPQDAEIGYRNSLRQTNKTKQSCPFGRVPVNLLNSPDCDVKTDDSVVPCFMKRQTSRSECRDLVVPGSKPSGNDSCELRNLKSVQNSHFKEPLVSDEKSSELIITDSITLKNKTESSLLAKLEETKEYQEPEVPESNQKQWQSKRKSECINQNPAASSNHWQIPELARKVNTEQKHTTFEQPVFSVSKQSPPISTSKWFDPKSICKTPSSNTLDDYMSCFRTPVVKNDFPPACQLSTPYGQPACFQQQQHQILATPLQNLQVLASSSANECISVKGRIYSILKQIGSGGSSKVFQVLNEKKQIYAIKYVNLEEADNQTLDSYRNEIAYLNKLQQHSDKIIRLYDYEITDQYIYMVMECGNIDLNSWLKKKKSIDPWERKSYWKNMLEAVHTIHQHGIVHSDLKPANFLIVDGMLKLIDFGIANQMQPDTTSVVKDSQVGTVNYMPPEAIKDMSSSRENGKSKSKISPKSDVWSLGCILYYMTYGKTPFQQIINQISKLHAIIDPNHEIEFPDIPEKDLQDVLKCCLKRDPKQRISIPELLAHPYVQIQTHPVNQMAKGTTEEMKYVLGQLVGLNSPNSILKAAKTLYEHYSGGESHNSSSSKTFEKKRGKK

Set 1 — method: RNA Bind-n-Seq; form: RNA; matrix: in vitro; tested at: 15 pmol; notes: 4-mer, random 30-nt RNA, single round; with: 3 µM RocA, 2 mM AMP-PNP; reference: mean of 4-mers; reading: higher = stronger binding
Target: Eukaryotic initiation factor 4A-I (EIF4A1, Homo sapiens, UniProt P60842, residues 1-406, full length assumed)
UniProt P60842, sequence (whole entry, looked up): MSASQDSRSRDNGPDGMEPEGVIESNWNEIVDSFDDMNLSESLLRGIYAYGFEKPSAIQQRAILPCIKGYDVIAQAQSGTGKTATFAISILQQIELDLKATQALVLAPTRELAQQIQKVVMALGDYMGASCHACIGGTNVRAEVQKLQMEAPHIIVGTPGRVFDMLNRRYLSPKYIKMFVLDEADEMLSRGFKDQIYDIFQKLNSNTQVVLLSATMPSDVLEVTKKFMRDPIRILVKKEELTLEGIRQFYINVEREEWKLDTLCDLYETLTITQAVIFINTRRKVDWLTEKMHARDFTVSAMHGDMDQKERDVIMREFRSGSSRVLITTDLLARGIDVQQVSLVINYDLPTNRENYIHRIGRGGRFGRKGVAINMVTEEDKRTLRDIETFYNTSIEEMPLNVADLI
`CCAA`: “4-mer enrichment Z-score” -0.767.
For `UAAC`, “4-mer enrichment Z-score” read -0.815.
Under “4-mer enrichment Z-score”, `UGGC` is recorded as 0.145.
`GCUC` — result for “4-mer enrichment Z-score”: -1.04.
Under “4-mer enrichment Z-score”, `CUUU` is recorded as -0.629.
Under “4-mer enrichment Z-score”, `AACU` is recorded as -0.416.
Under “4-mer enrichment Z-score”, `GCUG` is recorded as 0.138.
`AGAA` — result for “4-mer enrichment Z-score”: 2.29.

Set 2 — method: RNA Bind-n-Seq; form: RNA; matrix: in vitro; tested at: 20 nM; notes: 6-mer, flanks averaged, single round; with: 150 mM KCl; reference: input library; reading: higher = stronger binding
Target: TAR DNA-binding protein 43, full length, His tag (TARDBP, Homo sapiens, UniProt Q13148, residues 1-414)
For `UACAGC`, “6-mer enrichment (R)” read 0.65.
For `UACCUU`, “6-mer enrichment (R)” read 0.596.
`UGUGGC` — result for “6-mer enrichment (R)”: 1.42.
`CGCGUC` — result for “6-mer enrichment (R)”: 0.783.
Under “6-mer enrichment (R)”, `UGCUGU` is recorded as 0.796.
`AUUCAU`: “6-mer enrichment (R)” 0.553.
`UUACUA`: “6-mer enrichment (R)” 0.571.
`AGCCCG`: “6-mer enrichment (R)” 0.764.

Set 3 — method: protein-binding microarray; form: hairpin DNA; matrix: in vitro; tested at: not given; reference: not given; reading: higher = stronger binding; all sequences stand within: GAGGCCA … TGGCCTCACACTC
Target: GDNF-inducible zinc finger protein 1, full length (GZF1, Homo sapiens, UniProt Q9H116, residues 1-711)
UniProt Q9H116, sequence (whole entry, looked up): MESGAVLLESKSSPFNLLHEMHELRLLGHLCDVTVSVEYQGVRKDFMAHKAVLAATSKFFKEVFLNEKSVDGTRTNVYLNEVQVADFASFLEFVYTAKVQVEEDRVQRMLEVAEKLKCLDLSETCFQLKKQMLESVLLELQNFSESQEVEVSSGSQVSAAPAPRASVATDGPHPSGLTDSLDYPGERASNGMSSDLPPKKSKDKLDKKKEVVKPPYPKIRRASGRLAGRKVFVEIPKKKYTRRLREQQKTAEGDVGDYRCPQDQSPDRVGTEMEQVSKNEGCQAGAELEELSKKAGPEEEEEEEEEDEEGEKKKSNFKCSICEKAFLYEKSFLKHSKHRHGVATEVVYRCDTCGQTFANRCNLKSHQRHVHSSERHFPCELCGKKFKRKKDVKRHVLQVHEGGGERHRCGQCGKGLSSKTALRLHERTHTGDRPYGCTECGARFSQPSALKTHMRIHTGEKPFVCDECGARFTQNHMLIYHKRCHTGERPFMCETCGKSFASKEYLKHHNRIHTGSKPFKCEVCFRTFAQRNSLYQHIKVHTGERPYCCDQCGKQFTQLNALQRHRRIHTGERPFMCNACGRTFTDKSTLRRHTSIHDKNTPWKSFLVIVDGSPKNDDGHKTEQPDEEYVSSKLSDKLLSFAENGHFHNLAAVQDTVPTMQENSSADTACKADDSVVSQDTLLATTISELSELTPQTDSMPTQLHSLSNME
Notes: whole hairpin DNA, median over replicate spots
The median fluorescence of `CGACGGTAATGCCTCCTGGCATTACCGTCG (5mC at 36)` is reported as 723 a.u.
With `TTACGCTAATGCCTCCTGGCATTAGCGTAA (5mC at 13)` the median fluorescence was 406 a.u.
The median fluorescence of `TTACGCGAATGCCTCCTGGCATTCGCGTAA (5mC at 31)` is reported as 532 a.u.
The median fluorescence of `TTACGGTAATGCCTCCTGGCATTACCGTAA (5mC at 33)` is reported as 505 a.u.
With `TAACGGTAATGCCTCCTGGCATTACCGTTA` the median fluorescence was 533 a.u.
With `TTACGGCGATGCCTCCTGGCATCGCCGTAA (5mC at 14)` the median fluorescence was 555 a.u.
With `TTATGGTAATGCCTCCTGGCATTACCATAA` the median fluorescence was 373 a.u.
With `TCGCGGTAATGCCTCCTGGCATTACCGCGA (5mC at 9 35)` the median fluorescence was 692 a.u.

Further values, each from its own experiment
For `C[C@@H](c1cccc(C#N)c1)n1cc(Cl)cc(C(N)=O)c1=N`, the remaining binding was 100% (Dual specificity protein kinase TTK (TTK, Homo sapiens, UniProt P33981); cell-free assay, competition with immobilised ligand; 1 µM).
